Assay results collected from several papers.
Each numbered part is a random draw from the data of one study; scales do not carry over between parts. Changes are numbered by the printed parent chain.
UniProt P28223, sequence (whole entry, looked up): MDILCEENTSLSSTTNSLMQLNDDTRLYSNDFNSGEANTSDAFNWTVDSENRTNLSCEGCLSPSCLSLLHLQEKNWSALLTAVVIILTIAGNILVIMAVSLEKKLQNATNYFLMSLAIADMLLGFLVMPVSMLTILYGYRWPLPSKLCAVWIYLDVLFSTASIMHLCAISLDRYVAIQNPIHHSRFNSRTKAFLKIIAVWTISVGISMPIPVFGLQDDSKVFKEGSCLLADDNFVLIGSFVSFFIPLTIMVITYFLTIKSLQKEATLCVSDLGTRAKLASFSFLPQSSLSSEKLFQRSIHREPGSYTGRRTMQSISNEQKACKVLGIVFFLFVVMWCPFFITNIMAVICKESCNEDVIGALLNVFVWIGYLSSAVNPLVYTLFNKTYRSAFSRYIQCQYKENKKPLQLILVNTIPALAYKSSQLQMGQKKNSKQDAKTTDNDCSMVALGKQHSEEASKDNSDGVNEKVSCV
UniProt P11229, sequence (whole entry, looked up): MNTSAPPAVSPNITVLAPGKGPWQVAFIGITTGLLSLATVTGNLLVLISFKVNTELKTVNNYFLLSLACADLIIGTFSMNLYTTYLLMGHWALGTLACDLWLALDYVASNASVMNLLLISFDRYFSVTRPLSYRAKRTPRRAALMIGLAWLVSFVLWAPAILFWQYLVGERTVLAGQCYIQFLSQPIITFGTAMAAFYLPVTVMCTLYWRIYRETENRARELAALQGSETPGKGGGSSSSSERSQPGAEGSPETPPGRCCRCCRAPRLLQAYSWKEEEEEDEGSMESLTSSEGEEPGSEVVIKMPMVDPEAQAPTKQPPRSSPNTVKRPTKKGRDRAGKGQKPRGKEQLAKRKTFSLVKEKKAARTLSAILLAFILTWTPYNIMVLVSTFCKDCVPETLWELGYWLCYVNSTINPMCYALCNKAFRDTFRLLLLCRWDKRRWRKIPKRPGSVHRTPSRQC

Set 1
Target: Leukocyte tyrosine kinase receptor (LTK, Homo sapiens, UniProt P29376)
UniProt P29376, sequence (whole entry, looked up): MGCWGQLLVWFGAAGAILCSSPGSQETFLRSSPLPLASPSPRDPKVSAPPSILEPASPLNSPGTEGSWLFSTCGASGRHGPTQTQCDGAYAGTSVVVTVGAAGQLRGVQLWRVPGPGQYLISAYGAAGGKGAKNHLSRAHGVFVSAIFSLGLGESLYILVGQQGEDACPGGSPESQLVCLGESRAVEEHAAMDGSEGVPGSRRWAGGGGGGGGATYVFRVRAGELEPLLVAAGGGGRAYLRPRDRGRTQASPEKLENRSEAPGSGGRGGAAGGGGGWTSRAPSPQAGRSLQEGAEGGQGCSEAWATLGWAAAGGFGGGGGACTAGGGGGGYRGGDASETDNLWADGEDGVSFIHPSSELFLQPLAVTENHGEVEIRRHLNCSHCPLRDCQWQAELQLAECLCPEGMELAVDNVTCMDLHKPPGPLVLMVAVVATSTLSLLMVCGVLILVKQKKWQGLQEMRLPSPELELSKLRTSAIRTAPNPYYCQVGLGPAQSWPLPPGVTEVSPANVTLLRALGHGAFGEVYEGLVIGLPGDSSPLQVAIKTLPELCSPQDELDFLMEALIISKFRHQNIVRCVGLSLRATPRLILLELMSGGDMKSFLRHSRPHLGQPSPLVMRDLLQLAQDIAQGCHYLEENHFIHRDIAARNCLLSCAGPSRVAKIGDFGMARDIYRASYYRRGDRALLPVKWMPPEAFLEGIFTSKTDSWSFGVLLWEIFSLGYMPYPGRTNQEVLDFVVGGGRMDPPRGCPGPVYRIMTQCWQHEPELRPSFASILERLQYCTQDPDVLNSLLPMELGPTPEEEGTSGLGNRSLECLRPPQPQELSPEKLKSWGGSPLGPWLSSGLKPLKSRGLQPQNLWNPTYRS
Read-out: enzyme activity
Action: inhibitor
Method: radiometric
Concentration: 0.5 µM
| Compound | remaining activity [%] |
| --- | --- |
| COc1ccc(CNC(=O)Nc2ncc([N+](=O)[O-])s2)cc1 | 101 |
| CC(C)[C@H](CO)Nc1nc(Nc2cc(N)cc(Cl)c2)c2ncn(C(C)C)c2n1 | 103 |
| Nc1[nH]nc2nc3ccccc3nc12 | 89.4 |
| O=c1c2ccccc2[nH]c(=S)n1CCN1CCC(=C(c2ccc(F)cc2)c2ccc(F)cc2)CC1 | 97.9 |
| COc1ccc(C(=O)Nc2sc3c(c2C(N)=O)CCCC3)cc1OC | 40.5 |
| O=c1cc(N2CCNCC2)oc2c(-c3ccccc3)cccc12 | 96.9 |
| COC(=O)[C@]1(O)C[C@@H]2O[C@@]1(C)n1c3ccccc3c3c4c(c5c6ccccc6n2c5c31)C(=O)NC4 | 9.78 |
| COc1cc2ncnc(Nc3ccc(F)c(Cl)c3)c2cc1OCCCN1CCOCC1 | 90.4 |
| O=C(CCCc1ccc(-c2ccccc2F)cc1)Nc1ccc(O)cc1 | 106 |
| COc1cc2nccc(Oc3ccc(NC(=S)NC(=O)c4ccccc4C)cc3)c2cc1OC | 86.1 |
| O=C(O)c1ccc2c3c1cccc3c(=O)n1c3ccccc3nc21 | 72.7 |
| COc1cc2ncnc(Nc3ccc(Oc4ccccc4)cc3)c2cc1OC | 98.3 |
| NCCNc1ncc(C(N)=O)c(Nc2cccc(C(F)(F)F)c2)n1 | 84.8 |
| Cn1c2ccccc2c2c3c(c4c5ccccc5n(CCC#N)c4c21)CNC3=O | 8.79 |
| Nc1ncnc2n[nH]c(Nc3ccc(F)cc3)c12 | 92.5 |
| COc1ccc2c(c1)/C(=C/c1cnc[nH]1)C(=O)N2 | 93.6 |
| O=C1NC(=O)C(c2cn(CCCn3ccnc3)c3ccccc23)=C1Nc1ccccc1 | 93.4 |
| N#CC(C#N)=C(N)/C(C#N)=C/c1ccc(O)cc1 | 92.5 |

Set 2
Target: CCNB2, cyclin fold, Cln2 fusion (human)
Method: yeast growth competition, sequencing
Matrix: yeast
Setting: weak parent motif
Reference: not given
Reading: higher = stronger binding
Starting sequence: viral docking peptide; CKVKRKLFGSENI; partner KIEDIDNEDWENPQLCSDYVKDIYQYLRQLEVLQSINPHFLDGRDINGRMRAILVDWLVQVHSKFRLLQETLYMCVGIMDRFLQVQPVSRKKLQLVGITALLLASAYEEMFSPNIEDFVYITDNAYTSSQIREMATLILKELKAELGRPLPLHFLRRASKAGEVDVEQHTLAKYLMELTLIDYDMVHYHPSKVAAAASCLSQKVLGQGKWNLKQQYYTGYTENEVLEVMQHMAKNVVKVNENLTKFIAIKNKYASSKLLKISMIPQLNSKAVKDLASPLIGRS
| Change | normalised enrichment score |
| --- | --- |
| CKVKRALFGSENI [K6A] | 0.706 |
| AKVKRKLFGSENI [C1A] | 1.12 |
| CKVARKLFGSENI [K4A] | 0.875 |
| CKAKRKLFGSENI [V3A] | 0.35 |
| CKVKKKLFGSENI [R5K] | -0.724 |
| CKVKRKLFGAENI [S10A] | 0.965 |
| CKVKRKLFGSANI [E11A] | 0.823 |
| CKVKAKLFGSENI [R5A] | 0.00475 |

Set 3
Cell line: HaCaT
Concentration: 100 µM
Time: 60 h
| Compound | viability [%] |
| --- | --- |
| CN[C@H]1C[C@@H](N)[C@H](O)[C@@H](O[C@@H]2O[C@H](CO)[C@H](O)[C@@H]3OC4(O[C@H]23)O[C@H]([C@@H](N)CO)[C@H](O)[C@H](O)[C@H]4O)[C@@H]1O (stereo partly shown) | 74.5 |
| COc1cc2c(cc1OC)C13CCN4CC5=CCOC6CC(=O)N2C1C6C5CC43 (stereo not shown) | 110 |
| CCC1(c2cccc(O)c2)CCCCN(C)C1 (stereo not shown) | 149 |
| NC(=O)CN1CC(O)CC1=O (stereo not shown) | 160 |

Further values, each from its own experiment
CAMK2A: Calcium/calmodulin-dependent protein kinase type II subunit alpha (CAMK2A, Homo sapiens, UniProt Q9UQM7)
UniProt Q9UQM7, sequence (whole entry, looked up): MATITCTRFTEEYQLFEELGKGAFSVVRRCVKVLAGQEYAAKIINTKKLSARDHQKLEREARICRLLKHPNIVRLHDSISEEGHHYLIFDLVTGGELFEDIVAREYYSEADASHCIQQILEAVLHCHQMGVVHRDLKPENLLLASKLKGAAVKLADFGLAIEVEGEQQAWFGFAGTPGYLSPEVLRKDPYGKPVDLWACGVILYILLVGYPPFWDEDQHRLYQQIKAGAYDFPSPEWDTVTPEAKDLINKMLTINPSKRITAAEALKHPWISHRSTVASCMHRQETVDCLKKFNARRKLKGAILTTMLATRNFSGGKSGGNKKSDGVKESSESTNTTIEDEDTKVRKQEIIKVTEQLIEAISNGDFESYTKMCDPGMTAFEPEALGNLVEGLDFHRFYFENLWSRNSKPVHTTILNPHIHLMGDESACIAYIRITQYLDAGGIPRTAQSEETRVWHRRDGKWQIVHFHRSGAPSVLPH
HLA class I histocompatibility antigen, A alpha chain allele A*26:01: HLA class I histocompatibility antigen, A alpha chain, allele A*26:01 (Homo sapiens, UniProt P04439)
| Molecule | target | test | system | conditions | quantity | value |
| --- | --- | --- | --- | --- | --- | --- |
| COc1ccc2c(c[n+](C)c3c4cc5c(cc4ccc23)OCO5)c1OC | CAMK2A | enzyme activity, inhibitor |  | 10 µM | inhibition | -20% |
| VGNVYVKF | HLA class I histocompatibility antigen, A alpha chain allele A*26:01 | peptide-MHC binding | peptide | concentration not given | binding | inactive |
| c1cc2c(cc1[C@H]1OC[C@H]3[C@@H]1CO[C@H]3c1ccc3c(c1)OCO3)OCO2 | CAMK2A | enzyme activity, inhibitor |  | 10 µM | inhibition | 0% |
| N#CN1CC[C@@H](C(=O)Nc2nc3c(s2)CN(C(=O)CN=[N+]=[N-])CC3)C1 | Muscarinic acetylcholine receptor M1 (CHRM1, Homo sapiens, UniProt P11229) | binding, radioligand binding |  | 10 µM | inhibition | 24.4% |
| QIIKLLPF | HLA class I histocompatibility antigen, A alpha chain allele A*26:01 | peptide-MHC binding | peptide | concentration not given | binding | inactive |
| COc1cc(C(=O)O)cc(OC)c1OC | CAMK2A | enzyme activity, inhibitor |  | 10 µM | inhibition | 0% |
| Cc1nc(N2CC[C@@H](O)C2)ncc1-c1cc(C(F)(F)F)cc2[nH]ncc12 | 5-hydroxytryptamine receptor 2A (HTR2A, Homo sapiens, UniProt P28223) | cell-free assay |  | 10 µM | inhibition | -5.62% |

Excerpt of the above (set 2):
| Change | normalised enrichment score |
| --- | --- |
| CKVKRALFGSENI [K6A] | 0.706 |
| AKVKRKLFGSENI [C1A] | 1.12 |
| CKVARKLFGSENI [K4A] | 0.875 |
| CKAKRKLFGSENI [V3A] | 0.35 |
| CKVKKKLFGSENI [R5K] | -0.724 |
| CKVKRKLFGAENI [S10A] | 0.965 |
